Results of several laboratories.
Each line is one published result; not all experiments were run side by side. Values joined by “and” are separate records of one study, mostly repeats; a detail may differ. ± marks the error that the study gave.

| SMILES | tested on | test | system | setting | how to read | endpoint | result |
| --- | --- | --- | --- | --- | --- | --- | --- |
| CC[C@H](C)[C@H](NC(=O)[C@H](Cc1ccccc1)NC(=O)[C@H](CCC(=O)O)NC(=O)[C@H](CCCNC(=N)N)NC(=O)[C@H](C)NC(=O)[C@H](C)NC(=O)[C@H](CCC(N)=O)NC(=O)[C@H](CCC(=O)O)NC(=O)[C@H](CCC(=O)O)NC(=O)[C@H](CC(C)C)NC(=O)[C@H](Cc1ccc(O)cc1)NC(=O)[C@H](CO)NC(=O)[C@H](CO)NC(=O)[C@@H](NC(=O)[C@H](CC(=O)O)NC(=O)[C@H](CO)NC(=O)[C@@H](NC(=O)[C@H](Cc1ccccc1)NC(=O)[C@@H](NC(=O)CNC(=O)[C@H](CCC(=O)O)NC(=O)[C@H](C)NC(=O)CCc1cnc[nH]1)[C@@H](C)O)[C@@H](C)O)C(C)C)C(=O)N[C@@H](C)C(=O)N[C@@H](Cc1c[nH]c2ccccc12)C(=O)N[C@@H](CC(C)C)C(=O)N[C@H](C(=O)N[C@@H](CCCNC(=N)N)C(=O)NCC(=O)N[C@@H](CCCNC(=N)N)C(=O)N[C@@H](CCCCNC(=O)COCCOCCNC(=O)COCCOCCNC(=O)CC[C@H](NC(=O)CCCCCCCCCCCCCCCCC(=O)O)C(=O)O)C(=O)NCC(=O)NCC(=O)N[C@@H](CO)C(=O)N[C@@H](CCCCNC(=O)[C@H](CCCCNC(=O)[C@H](CCCCNc1c(NCCCCCN(O)C(=O)CCC(=O)NCCCCCN(O)C(=O)CCC(=O)NCCCCCN(O)C(C)=O)c(=O)c1=O)Nc1c(NCCCCCN(O)C(=O)CCC(=O)NCCCCCN(O)C(=O)CCC(=O)NCCCCCN(O)C(C)=O)c(=O)c1=O)NC(=O)[C@H](CCCCNc1c(NCCCCCN(O)C(=O)CCC(=O)NCCCCCN(O)C(=O)CCC(=O)NCCCCCN(O)C(C)=O)c(=O)c1=O)Nc1c(NCCCCCN(O)C(=O)CCC(=O)NCCCCCN(O)C(=O)CCC(=O)NCCCCCN(O)C(C)=O)c(=O)c1=O)C(=O)O)C(C)C [zirconium-89 labelled] | – | ex vivo gamma counting | Sprague-Dawley rat, male, pancreas | intravenous, 1 nmol, 24 h | – | tissue uptake | 0.433 %ID/g and 0.35 %ID/g and 0.331 %ID/g and 0.387 %ID/g and 0.346 %ID/g |
| CC(C)C[C@@H]1NC(=O)CNC(=O)[C@H](CC(N)=O)NC(=O)[C@H](CCCNC(=N)N)NC(=O)[C@H]([C@@H](C)O)NC(=O)[C@@H]2CSSC[C@@H]3NC(=O)[C@H]([C@@H](C)O)NC(=O)CNC(=O)CNC(=O)[C@H](C(C)C)NC(=O)[C@@H]4CSSC[C@H](NC(=O)[C@H]([C@@H](C)O)NC(=O)[C@H](CSSC[C@H](NC(=O)[C@H](C(C)C)NC(=O)[C@@H]5CCCN5C1=O)C(=O)N[C@@H](CCCCN)C(=O)N[C@@H](CCC(=O)O)C(=O)N[C@@H]([C@@H](C)O)C(=O)N4)NC(=O)CNC(=O)[C@@H]1CCCN1C(=O)[C@H]([C@@H](C)O)NC(=O)[C@H](CC(N)=O)NC3=O)C(=O)N[C@@H](CO)C(=O)N[C@@H](Cc1c[nH]c3ccccc13)C(=O)N1CCC[C@H]1C(=O)N[C@@H](C(C)C)C(=O)N2 | – | HPLC | ammonium bicarbonate | 180 µM, 7 days, pH 9.0, 25 °C, deamidation stability | – | remaining peptide | 88 ± 7% |
| Fc1ccc([C@@H]2CCNC[C@H]2COc2ccc3c(c2)OCO3)cc1 | – | refers to: Dizziness | healthy volunteers | oral, dose not given, given -1 h relative to LSD, together with: LSD | direction not given | List of Complaints score | 0 score |
| COc1cc2nc(N3CCN(C(=O)C4COc5ccccc5O4)CC3)nc(N)c2cc1OC (centres unmarked) | Plasmodium falciparum | – | Dd2 | – | – | IC50 | 10 µM |
| CN1CC[C@@H](c2c(O)cc(O)c3c(=O)cc(-c4ccc(C(F)(F)F)cc4Cl)oc23)[C@@H]1CO | – | refers to: Anemia | relapsed B-cell malignancies | oral, 200 mg, grade 3-4, intermittent dosing | – | patients with adverse event | 0% |
| CC1(C)[C@H](C(=O)OCc2cccc(Oc3ccccc3)c2)[C@@H]1C=C(Cl)Cl | – | refers to: CYP2B6 | human, age 1 year, recombinant human CYP2B6 | 0.1 µM | – | enzyme contribution to clearance | 2.66% |
| Cc1cccc(Cn2nc(C3CC3)c3c(NC(=O)c4cnc5cc(OCCN6CCN(C)CC6)ccn45)cccc32)n1 | – | CTCAE v4.03, refers to: AST increased | advanced solid tumour patients | oral, dose not given, all cohorts, together with: pembrolizumab IV every 3 weeks | – | all-cause adverse events | 36.8% |
| [O-][S+]1CCc2nc(N3CCC(c4ncc(Cl)cn4)CC3)nc(NC3(CO)CCC3)c21 (centres unmarked) | – | refers to: gastrointestinal disorders | healthy male subjects | dose not given, single rising dose, total | – | subjects with adverse event | 25% |
| c1cc2ccc3cccc4ccc(c1)c2c34 | – | – | fresh water | 12 (unit not given), 20 °C, SSP sampler, 100 µm | – | log K(PDMS-water) | 4.27 ± 0.01 |
| C[C@]1(CO)Cc2ncn(-c3ccc(C#N)c(Cl)c3)c2C(=O)O1 | – | – | human | 3 mg multiple doses, fasted | – | subjects with drug-related somnolence | 0% |
| Clc1ccc(Cl)c(-c2cc(Cl)c(Cl)cc2Cl)c1 | – | – | fresh water | 20 °C, S100 sampler, 100 µm | – | log K(PDMS-water) | 5.94 ± 0.04 |
| COc1cc2c(Oc3ccc4[nH]c(C)cc4c3F)ccnc2cc1OCC1(N)CC1 | – | – | paediatric recurrent refractory sarcoma | 8 mg/kg | – | grade 1 or 2 Nausea | 6.7% |
| CN1CCN(c2ccc(Nc3nccc(-c4ccc([N+](=O)[O-])cc4)n3)cc2C(F)(F)F)CC1 | – | – | zebrafish embryos | 25 µM, 5 d | – | toxicity | 79% |
| C[C@@H]1NC(=O)[C@H](CCCCNC(=O)CO/N=C/C(=O)NCCCC[C@@H]2NC(=O)[C@@H](Cc3ccccc3)NC(=O)[C@H](CC(=O)O)NC(=O)CNC(=O)[C@H](CCCNC(=N)N)NC2=O)NC(=O)CNC(=O)[C@@H]2CCCN2C(=O)[C@H](CCCCNC(=O)CO/N=C/C(=O)NCCCC[C@@H]2NC(=O)[C@@H](Cc3ccccc3)NC(=O)[C@H](CC(=O)O)NC(=O)CNC(=O)[C@H](CCCNC(=N)N)NC2=O)NC(=O)[C@H](CCCCNC(=O)[C@H](CCCCN)NC(=O)[C@H](Cc2ccccc2)NC(=O)CNC(=O)CN2CCCNCCNCCCNCC2)NC(=O)[C@H](CCCCNC(=O)CO/N=C/C(=O)NCCCC[C@@H]2NC(=O)[C@@H](Cc3ccccc3)NC(=O)[C@H](CC(=O)O)NC(=O)CNC(=O)[C@H](CCCNC(=N)N)NC2=O)NC(=O)CNC(=O)[C@@H]2CCCN2C(=O)[C@H](CCCCNC(=O)CO/N=C/C(=O)NCCCC[C@@H]2NC(=O)[C@@H](Cc3ccccc3)NC(=O)[C@H](CC(=O)O)NC(=O)CNC(=O)[C@H](CCCNC(=N)N)NC2=O)NC1=O [copper-64 labelled] | – | – | normal mice, spleen | intravenous, 0.74 MBq, 24 h post-injection | – | tissue uptake | 3.31 ± 0.42 %ID/g |
| COc1cccc(Oc2ccccc2NC(=O)CNC(=O)c2cccc3ccccc23)c1 | – | – | esterase-deficient SCID mice, male | oral, 40 mg/kg/day, 14 days, toxicity study | – | urea nitrogen/creatinine ratio | 320 and 175 and 185 |
| COc1ccc(C[C@@H]2NC(=O)[C@H]([C@@H](C)O)NC(=O)[C@@H]3[C@@H]4CCN3C(=O)[C@@H]3Cc5cn(c6ccc(F)cc56)CCCCCCN(Cc5ccc(cc5)CCNC(=O)[C@]5(C)CCCN5C2=O)C(=O)CCC(=O)N[C@@H](C)C(=O)N[C@H](CNC(=O)CCCCC[N+](C)(C)C)C(=O)N[C@@H](Cc2cccc(c2)CNC(=O)CO4)C(=O)N3)cc1 | – | refers to: postural dizziness | human | dose not given | – | participants with adverse event | 0% |
| COc1ncccc1-c1cnn2ccc(N3CCN(C(=O)OC(C)C)CC3)nc12 | – | – | rat, STZ model, plasma | oral, 10 mg/kg, 240 min | – | free drug concentration | 81 nM |
| CN(C)CC[C@@H](c1ccc(Br)cc1)c1ccccn1 | Plasmodium falciparum | – | GB4 | – | – | IC50 | 0.794 µM |
| CNC(=O)c1cc(Oc2ccc(NC(=O)Nc3cc(C(C)(C)C)nn3-c3ccc4ncccc4c3)c(F)c2)ccn1 | – | optic nerve disorder, NCI CTC v3.0 | human patients | oral, all dose levels | – | related SAE | 2% |
| CO[C@H]1C[C@@H]2CC[C@@H](C)[C@@](O)(O2)C(=O)C(=O)N2CCCC[C@H]2C(=O)O[C@H]([C@H](C)C[C@@H]2CC[C@@H](OC(=O)NCCOCCOCCOCCOCCOCCOCCOCCOCCC(=O)N3CCc4cc(Cn5nc(-c6ccc7oc(N)nc7c6)c6c(N)ncnc65)ccc4C3)[C@H](OC)C2)C[C@@H](O)[C@H](C)/C=C(\C)[C@@H](O)[C@@H](OC)C(=O)[C@H](C)C[C@H](C)/C=C/C=C/C=C/1C | – | phase 1 dose escalation, refers to: headache | advanced solid tumour patients | intravenous, 6 mg weekly, any grade | – | TRAE incidence | 8.3% |

A few entries again:
| SMILES | tested on | test | system | setting | how to read | endpoint | result |
| --- | --- | --- | --- | --- | --- | --- | --- |
| COc1cc2c(Oc3ccc4[nH]c(C)cc4c3F)ccnc2cc1OCC1(N)CC1 | – | – | paediatric recurrent refractory sarcoma | 8 mg/kg | – | grade 1 or 2 Nausea | 6.7% |
| [O-][S+]1CCc2nc(N3CCC(c4ncc(Cl)cn4)CC3)nc(NC3(CO)CCC3)c21 (centres unmarked) | – | refers to: gastrointestinal disorders | healthy male subjects | dose not given, single rising dose, total | – | subjects with adverse event | 25% |
